{"data": "Results from different studies", "note": "Parts stem from different laboratories: compare values within a part only."}
{"data": "Block 1", "target": "Interferon regulatory factor 5, full length, phosphomimetic (IRF5, Homo sapiens, UniProt Q13568-2, residues 1-514, S451D/S453D/S456D/S462D)", "technique": "protein-binding microarray", "form": "double-stranded DNA, one strand shown", "medium": "in vitro", "concentration": "940 nM top", "setting": "60-bp whole probe", "with": "salmon DNA 0.4 mg/ml", "relative to": "random background probes", "direction": "higher = stronger binding", "shared flanks, not repeated": "GCCTAGCAC … GTCTTGATTCGCTTGACGCTGCTG"}
{"Oligonucleotide": "TCAGTTCTAAATATCTTACTGTGCTAG", "fitted relative affinity [z-score]": 0.559}
{"Oligonucleotide": "TCATGTCTGATTATTTAACTGTGCTAG", "fitted relative affinity [z-score]": 0.211}
{"Oligonucleotide": "TCAATCCTTCATTTGAAACTGTGCTAG", "fitted relative affinity [z-score]": -0.131}
{"Oligonucleotide": "TTAGATATCCTTATCCTTTAGTGCTAG", "fitted relative affinity [z-score]": 0.158}
{"Oligonucleotide": "TTAGGACGGCTTATCCTTTAGTGCTAG", "fitted relative affinity [z-score]": -0.602}
{"Oligonucleotide": "GACGATATCAGTATCGAGGCGTGCTAG", "fitted relative affinity [z-score]": 1.36}
{"Oligonucleotide": "GACGATATGAGACTGGAGACGTGCTAG", "fitted relative affinity [z-score]": -0.488}
{"Oligonucleotide": "TATTTTTTCTGAACCATTTTGTGCTAG", "fitted relative affinity [z-score]": 0.824}
{"Oligonucleotide": "TTAGGACTGGGGACTGGGCTAGTGCTA", "fitted relative affinity [z-score]": -0.286}
{"Oligonucleotide": "TCAATTTTGGTTTTCCTACTGTGCTAG", "fitted relative affinity [z-score]": 1.39}
{"Oligonucleotide": "GACGATATCAGTTGCGAGACGTGCTAG", "fitted relative affinity [z-score]": 0.25}
{"Oligonucleotide": "GATGGACTGGACTTTCGGGACGTGCTA", "fitted relative affinity [z-score]": 0.153}
{"data": "Block 2", "target": "Histone acetyltransferase KAT6A, winged helix 2, GST fusion (KAT6A, Homo sapiens, UniProt Q92794, residues 85-181)", "technique": "protein binding microarray", "form": "double-stranded DNA, one strand shown", "medium": "in vitro", "concentration": "not given", "setting": "8-mer, flanks averaged, mean of 2 arrays, mostly near background", "relative to": "not given", "direction": "higher = stronger binding", "Target sequence (chain)": "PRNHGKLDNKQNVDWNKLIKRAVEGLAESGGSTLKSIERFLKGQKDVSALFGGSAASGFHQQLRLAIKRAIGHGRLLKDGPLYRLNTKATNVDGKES"}
{"Oligonucleotide": "ACCGCGGC", "E-score": 0.161}
{"Oligonucleotide": "GGATCACA", "E-score": -0.0562}
{"Oligonucleotide": "CGGGGCAG", "E-score": 0.128}
{"Oligonucleotide": "AAGCGCAT", "E-score": 0.0911}
{"Oligonucleotide": "AGTTTTTA", "E-score": 0.134}
{"Oligonucleotide": "AAAATAGC", "E-score": -0.209}
{"data": "Block 3", "target": "Transcription factor SOX-2, HMG box (Sox2, Mus musculus, UniProt P48432, residues 41-119)", "technique": "Spec-seq", "form": "double-stranded DNA, one strand shown", "medium": "in vitro", "concentration": "not given", "setting": "whole probe, mean of replicates", "relative to": "not given", "direction": "lower = stronger binding", "shared flanks, not repeated": "GAGTCGTCTCGTCAGCAC … CCGTAGAGCACTCAGGTC", "UniProt P48432, sequence (41-119, looked up)": "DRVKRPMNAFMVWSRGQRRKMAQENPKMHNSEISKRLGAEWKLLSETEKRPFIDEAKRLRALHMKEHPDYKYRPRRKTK"}
{"Oligonucleotide": "CATGGGG", "relative binding energy [ln ratio]": 0.117}
{"Oligonucleotide": "GGTGGTT", "relative binding energy [ln ratio]": 1.37}
{"Oligonucleotide": "CATCTAG", "relative binding energy [ln ratio]": 0.39}
{"Oligonucleotide": "CATTATC", "relative binding energy [ln ratio]": -1.71}
{"Oligonucleotide": "GGGTGTT", "relative binding energy [ln ratio]": 1.24}
{"Oligonucleotide": "CATATCT", "relative binding energy [ln ratio]": 0.419}
{"Oligonucleotide": "CATGGTA", "relative binding energy [ln ratio]": -0.0486}
{"Oligonucleotide": "GAGAGTT", "relative binding energy [ln ratio]": 1.09}
{"Oligonucleotide": "CATAAGC", "relative binding energy [ln ratio]": -0.0111}
{"Oligonucleotide": "CATAACG", "relative binding energy [ln ratio]": -0.147}
{"Oligonucleotide": "ATTCGTT", "relative binding energy [ln ratio]": 0.0563}
{"data": "Mixed results"}
{"Substance": "PhoQ, residues 284 288 289 292 302 303 SSTLSG", "target": "PhoP, residues 12 14 15 18 19 NQGLL (Escherichia coli, UniProt P23836)", "test": "Sort-seq, item: YFP reporter", "test system": "E. coli", "conditions": "PhoQ-PhoP variant library, with: 10 µM Mg2+", "scale": "relative to: high Mg2+ state, higher = stronger signaling", "endpoint": "fold induction", "result": 6.71}
{"note": "Some of these lines once more (block 2):"}
{"Oligonucleotide": "AAAATAGC", "E-score": -0.209}
{"Oligonucleotide": "CGGGGCAG", "E-score": 0.128}
